Assay results of several laboratories.
Numbered parts are unrelated; each lists some results of a single study. Substitutions count along the parent as printed.

Series 1
Target: Interferon regulatory factor 7, full length, phosphomimetic (IRF7, Homo sapiens, UniProt Q92985, residues 1-503, S471D/S472D/S475D/S476D/S477D/S483D/S484D/S487D)
Chain of UniProt Q92985 (whole entry, unmodified, looked up): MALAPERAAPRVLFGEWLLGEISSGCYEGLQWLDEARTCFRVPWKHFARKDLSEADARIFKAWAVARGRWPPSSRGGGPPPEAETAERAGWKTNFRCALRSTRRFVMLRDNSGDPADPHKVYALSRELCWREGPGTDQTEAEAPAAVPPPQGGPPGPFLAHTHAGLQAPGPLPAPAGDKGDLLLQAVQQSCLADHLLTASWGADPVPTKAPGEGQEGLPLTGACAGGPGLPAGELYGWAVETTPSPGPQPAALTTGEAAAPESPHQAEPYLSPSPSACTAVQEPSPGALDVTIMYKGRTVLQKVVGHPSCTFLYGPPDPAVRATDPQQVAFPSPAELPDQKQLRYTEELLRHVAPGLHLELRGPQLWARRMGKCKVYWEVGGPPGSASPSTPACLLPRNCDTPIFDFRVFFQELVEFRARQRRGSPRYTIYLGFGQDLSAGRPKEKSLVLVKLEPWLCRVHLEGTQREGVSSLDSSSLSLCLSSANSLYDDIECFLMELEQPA
Method: protein-binding microarray
Form: double-stranded DNA, one strand shown
Medium: in vitro
Concentration: 2200 nM top
Setting: 60-bp whole probe
With: salmon DNA 0.4 mg/ml
Reference: random background probes
Reading: higher = stronger binding
Constant ends, left off below: GCCTAGCAC … GTCTTGATTCGCTTGACGCTGCTG
| Sequence | fitted relative affinity |
| --- | --- |
| TTTAAAGAACCCACTATCTTGTGCTAG | -0.136 z-score |
| GACGGTCTCCTACTGCTGATGTGCTAG | 0.591 z-score |
| GACGGTTTCGACTTTCGGGCCGTGCTA | 8.39 z-score |
| TCACATTTATTTACTCTCACTGTGCTA | 1.6 z-score |
| TTAGATTTCAGTCTCGAGTAGTGCTAG | 0.709 z-score |
| GACGGACTGGGGAATGGGGACGTGCTA | -0.594 z-score |
| GACGTTATCGACTATCGGGACGTGCTA | 0.292 z-score |
| GACGACCTGAGTCTCGAGACGTGCTAG | -0.0537 z-score |
| CTCTCTTTCCAACTCTGTTTGTGCTAG | 3.18 z-score |
| TTAGATATCTGTTTCGATTAGTGCTAG | 3.55 z-score |
| GACGGTATCGGGTATCGGGGCGTGCTA | -0.102 z-score |
| GATGAACTGAGTCTCGAGACGTGCTAG | 0.103 z-score |
| GACGGTATCGACAATGGGGACGTGCTA | -0.336 z-score |
| GACGATCTCAGTTTCGAGATGTGCTAG | 3.85 z-score |
| AGCTGTTTCTGTGTCACAGAGTGCTAG | 1.1 z-score |
| CACGGTTTCGGACTGGGGACGTGCTAG | 3.74 z-score |
| TCATTTTTACTTTCTGAACTGTGCTAG | 3.83 z-score |
| GACGGTTTCGGTGTCGGGACGTGCTAG | 4.31 z-score |
| GACGGTTACGACACTGGGGACGTGCTA | -0.398 z-score |
| TCACGTGACCCTCTCAAACTGTGCTAG | 0.902 z-score |
| TTAGGGTTCGGTTTCGGTTAGTGCTAG | 7.65 z-score |
| TCATCCCTCGGGTTGCGGACTGTGCTA | 1.24 z-score |

Series 2
Target: CCNB1, cyclin fold, Cln2 fusion (human)
Method: yeast growth competition, sequencing
Medium: yeast
Setting: strong parent motif
Reference: not given
Reading: higher = stronger binding
Parent: E2F1 docking peptide (human); PPVKRRLDFETDH
| Substitution | normalised enrichment score |
| --- | --- |
| PPWKRRLDFETDH [V3W] | 2.66 |
| PSVKRRLDFETDH [P2S] | 5.37 |
| PPVKMRLDFETDH [R5M] | 3.35 |
| PPVKCRLDFETDH [R5C] | 3.2 |
| PPVKRRLDFEYDH [T11Y] | 5.06 |
| PPVKRRLDFEHDH [T11H] | 5.24 |
| PVVKRRLDFETDH [P2V] | 4.71 |
| PPVKRRLDFEEDH [T11E] | 5.19 |
| PPVKRRFDFETDH [L7F] | 0.286 |
| PPFKRRLDFETDH [V3F] | 1.45 |
| PPVKRRLDGETDH [F9G] | 0.165 |
| PPVYRRLDFETDH [K4Y] | 3.86 |
| PPVKRGLDFETDH [R6G] | 1.22 |
| PPVLRRLDFETDH [K4L] | 2.3 |
| PPVKRREDFETDH [L7E] | 0.381 |
| PPVKRPLDFETDH [R6P] | 0.554 |
| PPKKRRLDFETDH [V3K] | 0.748 |
| PPVKRRLFFETDH [D8F] | 5.28 |
| PPVKRRVDFETDH [L7V] | 0.84 |
| PPVKRRLAFETDH [D8A] | 4 |
| PPVKRRLDFEADH [T11A] | 4.97 |
| PPVKLRLDFETDH [R5L] | 2.49 |
| PYVKRRLDFETDH [P2Y] | 3.95 |
| PPVKRRLRFETDH [D8R] | 3.51 |

Series 3
Target: RING finger protein unkempt homolog, zinc fingers 1-6, GST-SBP tag (UNK, Homo sapiens, UniProt Q9C0B0, residues 30-357)
Chain of UniProt Q9C0B0 (30-357, looked up): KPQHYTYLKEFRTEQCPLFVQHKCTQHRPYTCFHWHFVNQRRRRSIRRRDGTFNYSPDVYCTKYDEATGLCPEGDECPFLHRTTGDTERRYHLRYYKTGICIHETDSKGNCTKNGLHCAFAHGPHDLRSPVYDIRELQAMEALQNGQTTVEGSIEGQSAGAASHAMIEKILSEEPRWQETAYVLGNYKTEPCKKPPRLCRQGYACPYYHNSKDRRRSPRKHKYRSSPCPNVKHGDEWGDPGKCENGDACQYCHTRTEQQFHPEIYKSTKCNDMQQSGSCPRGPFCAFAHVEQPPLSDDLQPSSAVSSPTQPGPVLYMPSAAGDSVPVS
Method: RNA Bind-n-Seq
Form: RNA
Medium: in vitro
Concentration: not given
Setting: RNA with constant flanks, ends assumed
Reference: input RNA pool
Reading: higher = stronger binding
Constant ends, left off below: GGGAGUUCUACAGUCCGACGAUC … CAACAGAGGAUUGAGCAUCA
| Sequence | bound/input enrichment [ratio] |
| --- | --- |
| AACUAUUUUUCUUUGCUCAUGGGCUGGAUGGGAAUUACCCCUCCUCCAGUGCAAUGUCAUCACCGACUGUCCAUGACAGAUGAUAGCAAAAAGCAGGAUCUUAGUUCAUCUUUAACAGAU | 0.194 |
| AAUGUUACUUCUAUGAUAAACUUAAAGACCAUUGCUUCAUCAGCAGAUCCUAAAAAUGUCCGUAUACCAUCUUCUGAAGCUUUAUCUUCGGAUCCUUCCUACAACAAAGAAAAACACAUU | 0.182 |
| UAUGGUUAUGAAAAGCCAGAGGAACGCUGGCUCCCUAUCCACACUGUGGAAACCAUCAUGAUCCGUGUCAUUUCUAUGCUGGCAGACCCUAAUGGAGACUCACCUGCUAAUGUUGAUGCU | 0.77 |
| UCUGCAGAGCUGAGGGCGCCGUCUUCGGCCAGGCCGUGACACGGUGAAUUAAAGUCGGCUACCGAUUUCUGUGAAAAUGUCGGUUCUUAUAUCACAGAGUGUGAUAAAUUAUGUGGAAGA | 0.136 |
| AAGGUGCCCUUAUUGCUUCCAAAUGUUUCUGCUUUGGAAUCUCAAAUAGAAAUGGGCAACACCGUUAAACCCAAAGUACUUACGAAAGAAGCAGAGGAAAAACUUCCUUCUGAUACAGAG | 0.155 |
| CGUGGAAAUAUUGUCUAUAUUCACAUAAGAGAUAAGACAUGGGAUGUUCAUGAGUAUUUGAACCGUCUUUUCGAAGAAUUAAAAUCUUGGAGAGAUGUAUACUGGCGAUUGUGGGGAACA | 0.253 |
| AUUUUCUUUAUGUGUGAAGACACAAAGUAUGGGGGAAGACAGCAAUCAAAACUAACUUUUUGCCGACCGCCAUUUCAUUUCUUUAAACUGUUUCAACGCCAAUAUGUAUUCUACAAAAGA | 0.257 |
| UUGUGGGGAUGAGGGUGGGAUGGGAAAGGGAUGUAUGGAUGUUAUUGGCAUUUUUAAGUGUUCCGAGUUUUUUGGGGUUUGGGGUGGUUUUUUUUCCUUGUUUUCCUUUUUUCCUUUUAA | 1.4 |
| ACUUGUUGUGUGUGUGCGUGUGUGUGUGUGUGUGUGUGUGUGUGUGUGUGUUCUGUACCCACCCGGAUUUGUUUAGGUGCCCAUUGCAUCUUUUUGUGCUAUGGAGUUGUUUACAUUAAG | 1.43 |
| GAUGACAAUCCAUUUGCAGAGUACAUGUGGAUGGAAAAUGAAGAAGAAUUCAACAGACAAACCGAAGAGGAGUUAUGGGAAGAAGAAUUUAUUGAACGCUGUUUCCAAGAAAUGCUGGAA | 0.25 |
| CUUAUGCCCUCCAGUCUGCAGACCCCUCAGCCCCAGGAGCAGAAUGGGAUUUUAGACUGGCUCCGGAAGCUGCGCUUGCACAAGUAUUACCCUGUCUUUAAACAGCUCACCAUGGAGAAG | 0.197 |

Series 4
Target: Protein C-ets-1 (ETS1, Homo sapiens, UniProt P14921, residues 1-441, K379A, full length assumed)
Method: protein-binding microarray
Form: double-stranded DNA, one strand shown
Medium: in vitro
Concentration: not given
Setting: k-mer, scored over probes, only values ≥0.25
Reading: higher = stronger binding
Construct (chain): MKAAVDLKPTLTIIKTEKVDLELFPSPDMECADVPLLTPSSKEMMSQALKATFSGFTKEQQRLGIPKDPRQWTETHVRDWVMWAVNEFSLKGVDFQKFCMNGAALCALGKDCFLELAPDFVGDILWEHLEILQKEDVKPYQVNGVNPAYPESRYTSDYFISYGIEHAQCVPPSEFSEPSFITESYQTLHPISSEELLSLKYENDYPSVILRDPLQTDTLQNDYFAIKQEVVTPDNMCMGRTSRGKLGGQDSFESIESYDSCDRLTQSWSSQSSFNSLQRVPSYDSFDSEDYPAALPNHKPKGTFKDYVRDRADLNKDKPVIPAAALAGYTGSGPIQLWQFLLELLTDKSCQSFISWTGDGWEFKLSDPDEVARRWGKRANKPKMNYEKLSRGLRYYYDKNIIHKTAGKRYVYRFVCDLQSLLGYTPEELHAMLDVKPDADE
| Sequence | E-score |
| --- | --- |
| ATTTCCGC | 0.255 |
| TCCGACAA | 0.301 |
| ACCGTTAA | 0.261 |
| AAATACAC | 0.262 |
| ACGATCGA | 0.285 |
| CCGGGAGC | 0.256 |
| CCCGCCCG | 0.384 |
| CGATGTAC | 0.259 |
| GACCGGAA | 0.49 |
| GTACCGAC | 0.355 |
| AACATTGT | 0.357 |
| AATACACC | 0.279 |
| CATAATAC | 0.314 |
| GACAGGAA | 0.307 |
| ACGACGTA | 0.292 |
| ACGAGTAA | 0.276 |

Series 5
Target: Histone acetyltransferase KAT6A, winged helix 1, GST fusion (KAT6A, Homo sapiens, UniProt Q92794, residues 1-85)
Method: protein binding microarray
Form: double-stranded DNA, one strand shown
Medium: in vitro
Concentration: not given
Setting: 8-mer, flanks averaged, mean of 2 arrays, mostly near background
Reference: not given
Reading: higher = stronger binding
Target sequence (chain): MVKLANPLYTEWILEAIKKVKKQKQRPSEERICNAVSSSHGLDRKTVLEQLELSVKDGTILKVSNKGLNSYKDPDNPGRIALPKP
| Sequence | E-score |
| --- | --- |
| CGTGTACA | 0.0519 |
| CATTATCA | -0.109 |
| AACAGACT | -0.0776 |
| AATTATAG | -0.145 |
| ACTTCATC | -0.196 |
| CGCCTGAA | -0.0137 |
| CGAAAGGA | -0.0396 |
| CTTCAGGC | -0.109 |
| ATAGTAGA | -0.175 |
| ATTTGAGG | -0.21 |
| CAGAACTA | -0.0121 |
| CACTCGGA | -0.124 |
| CGCATAAA | 0.0468 |
| AAGCGCCC | 0.363 |
| ATCCCGCC | 0.409 |
| GAGACCGA | 0.0169 |
| ATGTTAGA | -0.173 |
| ATGGGCCA | -0.236 |
| ATATAAAT | -0.0349 |
| GCCGAAAC | 0.0922 |
| ACAGATAT | -0.181 |
| AATCACCC | -0.246 |
| AGTCACGG | 0.328 |
| CTGTTGCC | -0.0709 |
| AGTACTAA | -0.154 |

Series 6
Target: Prothrombin, mature alpha-thrombin (F2, Homo sapiens, UniProt P00734)
Method: aptamer microarray, sandwich
Form: DNA with 2'F-ANA
Medium: in vitro
Concentration: 200 nM
Setting: whole 15-mer aptamer, many near background
With: Cy3 exosite-II aptamer, 400 nM
Reading: higher = stronger binding
Sequence: GGTTGGTGTGGTTGG
| Modification | mean fluorescence intensity |
| --- | --- |
| 2'F-ANA at 2 3 4 8 9 11 14 15 | 256 a.u. |
| 2'F-ANA at 1 3 5 7 9 11 15 | 58.8 a.u. |
| 2'F-ANA at 2 3 4 7 13 15 | 540 a.u. |
| 2'F-ANA at 1 2 4 7 9 11 14 | 50.4 a.u. |
| 2'F-ANA at 1 2 3 4 7 | 223 a.u. |
| 2'F-ANA at 1 2 3 4 7 8 11 12 14 | 96.7 a.u. |
| 2'F-ANA at 1 2 4 6 10 | 118 a.u. |
| 2'F-ANA at 1 3 4 6 7 8 10 11 12 14 15 | 57.5 a.u. |
| 2'F-ANA at 1 3 4 6 7 8 13 15 | 168 a.u. |
| 2'F-ANA at 2 3 4 5 6 7 8 9 10 11 | 89.3 a.u. |
| 2'F-ANA at 1 4 12 13 | 256 a.u. |
| 2'F-ANA at 1 2 3 5 8 10 11 12 14 | 95.6 a.u. |
| 2'F-ANA at 1 3 7 10 13 14 | 60.9 a.u. |
| 2'F-ANA at 5 9 10 11 14 15 | 47.8 a.u. |
| 2'F-ANA at 7 10 11 15 | 178 a.u. |
| 2'F-ANA at 2 8 9 13 15 | 349 a.u. |
